Published values from different studies.
Numbered parts are unrelated; each lists some results of a single study. Changes are numbered by the printed parent chain.
UniProt Q9NPD8, sequence (whole entry, looked up): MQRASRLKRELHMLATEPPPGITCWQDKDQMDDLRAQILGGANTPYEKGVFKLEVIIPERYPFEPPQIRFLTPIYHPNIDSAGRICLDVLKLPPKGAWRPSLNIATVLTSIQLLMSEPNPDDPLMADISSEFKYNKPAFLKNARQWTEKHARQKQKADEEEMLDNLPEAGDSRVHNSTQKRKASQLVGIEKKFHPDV
UniProt Q712K3, sequence (whole entry, looked up): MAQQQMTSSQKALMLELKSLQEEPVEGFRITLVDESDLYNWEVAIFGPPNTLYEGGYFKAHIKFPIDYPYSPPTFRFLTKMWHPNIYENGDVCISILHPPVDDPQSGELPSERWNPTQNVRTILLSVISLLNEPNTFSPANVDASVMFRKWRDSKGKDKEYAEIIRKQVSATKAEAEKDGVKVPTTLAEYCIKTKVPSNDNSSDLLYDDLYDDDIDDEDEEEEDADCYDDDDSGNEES
UniProt Q9C0C9, sequence (whole entry, looked up): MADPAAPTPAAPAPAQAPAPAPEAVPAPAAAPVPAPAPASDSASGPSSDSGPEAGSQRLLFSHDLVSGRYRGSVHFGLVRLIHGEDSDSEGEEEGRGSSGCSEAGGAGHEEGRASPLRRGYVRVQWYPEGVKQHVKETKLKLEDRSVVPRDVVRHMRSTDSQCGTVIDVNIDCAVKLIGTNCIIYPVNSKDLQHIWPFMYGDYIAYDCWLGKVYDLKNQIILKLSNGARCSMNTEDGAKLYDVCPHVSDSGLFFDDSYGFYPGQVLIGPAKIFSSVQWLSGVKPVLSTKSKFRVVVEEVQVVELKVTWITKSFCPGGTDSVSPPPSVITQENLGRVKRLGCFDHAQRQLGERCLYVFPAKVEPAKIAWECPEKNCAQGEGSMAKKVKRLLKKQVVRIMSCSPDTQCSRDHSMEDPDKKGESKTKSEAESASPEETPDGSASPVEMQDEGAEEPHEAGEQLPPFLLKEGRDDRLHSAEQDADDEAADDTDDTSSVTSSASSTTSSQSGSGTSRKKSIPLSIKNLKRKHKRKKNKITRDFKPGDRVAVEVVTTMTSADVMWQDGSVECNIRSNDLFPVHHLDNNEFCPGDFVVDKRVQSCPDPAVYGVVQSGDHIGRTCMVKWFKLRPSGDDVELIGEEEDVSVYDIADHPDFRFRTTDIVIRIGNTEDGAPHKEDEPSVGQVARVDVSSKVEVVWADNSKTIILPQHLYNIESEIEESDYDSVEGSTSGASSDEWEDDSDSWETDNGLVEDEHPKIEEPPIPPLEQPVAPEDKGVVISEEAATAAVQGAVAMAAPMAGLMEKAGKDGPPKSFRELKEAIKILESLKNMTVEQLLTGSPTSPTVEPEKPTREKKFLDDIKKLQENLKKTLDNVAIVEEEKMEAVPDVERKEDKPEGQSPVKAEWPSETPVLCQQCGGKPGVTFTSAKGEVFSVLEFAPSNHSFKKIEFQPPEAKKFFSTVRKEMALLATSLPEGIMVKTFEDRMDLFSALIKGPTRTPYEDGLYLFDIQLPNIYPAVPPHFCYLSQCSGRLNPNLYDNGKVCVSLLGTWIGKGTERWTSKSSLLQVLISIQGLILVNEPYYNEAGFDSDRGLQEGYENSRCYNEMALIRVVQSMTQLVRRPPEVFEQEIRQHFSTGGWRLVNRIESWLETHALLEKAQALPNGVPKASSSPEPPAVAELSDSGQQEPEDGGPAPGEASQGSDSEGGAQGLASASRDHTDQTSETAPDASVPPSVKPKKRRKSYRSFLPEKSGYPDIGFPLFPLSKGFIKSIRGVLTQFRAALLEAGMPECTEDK
UniProt P51668, sequence (whole entry, looked up): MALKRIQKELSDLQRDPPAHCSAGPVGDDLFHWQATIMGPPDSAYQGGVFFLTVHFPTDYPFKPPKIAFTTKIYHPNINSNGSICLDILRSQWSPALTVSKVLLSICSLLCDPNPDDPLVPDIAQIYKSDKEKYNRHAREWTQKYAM
UniProt O00762, sequence (whole entry, looked up): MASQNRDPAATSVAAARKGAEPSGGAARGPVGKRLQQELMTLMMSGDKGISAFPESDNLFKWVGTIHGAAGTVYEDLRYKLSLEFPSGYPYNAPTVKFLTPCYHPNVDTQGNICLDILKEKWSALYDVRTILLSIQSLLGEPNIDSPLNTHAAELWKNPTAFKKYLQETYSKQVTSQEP
UniProt P62253, sequence (whole entry, looked up): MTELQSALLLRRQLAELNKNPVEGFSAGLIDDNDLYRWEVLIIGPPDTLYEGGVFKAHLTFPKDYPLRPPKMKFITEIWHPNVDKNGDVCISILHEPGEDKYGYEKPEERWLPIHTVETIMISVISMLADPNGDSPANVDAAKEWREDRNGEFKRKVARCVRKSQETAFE
UniProt Q9Y385, sequence (whole entry, looked up): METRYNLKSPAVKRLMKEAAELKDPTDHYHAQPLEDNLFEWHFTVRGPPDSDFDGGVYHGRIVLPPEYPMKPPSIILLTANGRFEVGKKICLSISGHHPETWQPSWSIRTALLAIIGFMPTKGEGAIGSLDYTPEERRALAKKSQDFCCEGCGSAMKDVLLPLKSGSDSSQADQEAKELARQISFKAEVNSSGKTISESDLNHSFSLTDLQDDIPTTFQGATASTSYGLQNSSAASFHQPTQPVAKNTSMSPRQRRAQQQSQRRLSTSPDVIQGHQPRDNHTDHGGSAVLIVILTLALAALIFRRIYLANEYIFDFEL

Set 1
Target: CCND2, cyclin fold, Cln2 fusion (human)
Technique: yeast growth competition, sequencing
Sample: yeast
Notes: strong parent motif
Relative to: not given
Direction: higher = stronger binding
Starting sequence: E2F1 docking peptide (human); PPVKRRLDFETDH
| Variant | normalised enrichment score |
| --- | --- |
| P2M | 0.874 |
| L7S | 0.0889 |
| R6K | 2.2 |
| R5Q | 0.0662 |
| R6N | 0.231 |
| L7G | -0.299 |
| R6D | -0.117 |
| T11Y | 2.08 |
| F9Q | 0.451 |
| V3K | 0.794 |
| L7Y | 0.159 |
| L7C | 0.587 |
| E10Q | 1.52 |
| V3R | 0.154 |
| L7I | 1.83 |
| D12W | 1.86 |
| T11L | 1.77 |

Set 2
Target: Sal-like protein 4, full length isoform B (SALL4, Homo sapiens, UniProt Q9UJQ4-2, residues 1-616)
Technique: universal PBM
Form: double-stranded DNA, one strand shown
Sample: in vitro
Tested at: not given
Notes: 8-mer, flanks averaged, mean of replicates
Direction: higher = stronger binding
| Sequence | E-score |
| --- | --- |
| CCCACTAC | -0.0557 |
| ACGACGTC | -0.132 |
| ACGACTTA | -0.00067 |
| AAGAACAA | 0.265 |
| AGATAGTA | 0.167 |
| ATTAGGCA | 0.154 |
| GCGGTCTA | -0.0166 |
| ATTTTGCC | 0.151 |
| ATCCTGTC | 0.103 |
| CGCTGCGC | -0.309 |
| TGTGTCAA | 0.241 |
| GGGAGCCA | -0.303 |
| AGTAAGTA | 0.259 |
| TAGCAATA | 0.314 |
| ACCGACAA | -0.0951 |
| CCATGACC | -0.213 |
| ACGCGGCC | -0.142 |
| TCCCAAGA | -0.0387 |
| AAGGCCTC | -0.157 |
| GACGGATA | -0.0913 |
| TGCATGAA | 0.136 |
| ATCGACCG | -0.207 |
| CGCGAGGA | -0.328 |
| ATGTTCAA | 0.128 |
| TTAAAAAA | 0.312 |

Set 3
Target: Histone acetyltransferase KAT6A, both winged helices, GST fusion (KAT6A, Homo sapiens, UniProt Q92794, residues 1-181)
Technique: protein binding microarray
Form: double-stranded DNA, one strand shown
Sample: in vitro
Tested at: not given
Notes: 8-mer, flanks averaged, mean of 2 arrays, mostly near background
Relative to: not given
Direction: higher = stronger binding
Residues (chain): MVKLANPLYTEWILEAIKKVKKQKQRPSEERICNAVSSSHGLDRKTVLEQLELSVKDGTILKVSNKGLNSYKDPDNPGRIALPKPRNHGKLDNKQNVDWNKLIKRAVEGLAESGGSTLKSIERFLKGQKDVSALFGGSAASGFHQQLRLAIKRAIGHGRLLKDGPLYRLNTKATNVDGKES
| Sequence | E-score |
| --- | --- |
| CCCCGAGC | 0.0365 |
| CAGTCATC | -0.0462 |
| ACCCTTAC | -0.0723 |
| CAATTGAA | -0.0521 |
| ACTTGACC | -0.153 |
| GGAATACC | 0.11 |
| CCTCAATA | -0.0195 |
| CAACGGTC | 0.0813 |
| CACGCTTA | 0.0613 |
| AACCCCTT | -0.151 |
| GTCCTGGA | -0.037 |
| AATGTGTC | -0.0309 |
| AGTCTTTC | -0.0978 |
| ATGAGTAC | 0.0267 |
| CAGCGCGC | 0.363 |
| CGTGCCCA | 0.027 |
| ACGTAAAC | 0.0289 |
| GTTTTCAA | 0.0241 |
| CGCCCATC | 0.0476 |
| GTGGTAAC | -0.00199 |
| CATGACAG | -0.0371 |
| CGCGGTAC | 0.371 |
| AGGGTGCC | -0.0517 |
| GAACATTA | -0.00639 |
| AGTCGTCG | -0.00053 |

Set 4
Sequence: B1 (NSMCE1 RING domain)
Technique: yeast two-hybrid
Sample: yeast
Notes: mostly zero background
Relative to: not given
Direction: higher = stronger interaction
B1: NSMCE1 RING domain (UniProt Q8WV22); chain RETYPDAVKICNICHSLLIQGQSCETCGIRMHLPCVAKYFQSNAEPRCPHCNDYWPHEIPKV
| target | lacZ reporter activity |
| --- | --- |
| UBE2O UBC core domain (UniProt Q9C0C9) | 0 |
| UBE2G1 UBC core domain (UniProt P62253) | 0 |
| UBE2R2 UBC core domain (UniProt Q712K3) | 0 |
| UBE2J1 UBC core domain (UniProt Q9Y385) | 0 |
| UBE2C UBC core domain (UniProt O00762) | 0 |
| UBE2T UBC core domain (UniProt Q9NPD8) | 0 |
| UBE2D1 UBC core domain (UniProt P51668) | 0 |

Set 5
Target: RNA binding protein fox-1 homolog 2, RRM domain, GST-SBP tag (RBFOX2, Homo sapiens, UniProt O43251-10, residues 100-194)
Technique: RNA Bind-n-Seq
Form: RNA
Sample: in vitro
Tested at: 365 nM
Notes: natural RNA segment, single round, ends assumed
Relative to: no-protein control
Direction: higher = stronger binding
All sequences stand within: GGGAGUUCUACAGUCCGACGAUC … UGGAAUUCUCGGGUGCCAA
Residues (chain): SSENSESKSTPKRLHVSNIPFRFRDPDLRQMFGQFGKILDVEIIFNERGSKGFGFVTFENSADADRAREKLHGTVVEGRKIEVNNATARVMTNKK
| Sequence | RBNS enrichment (R) |
| --- | --- |
| CUCCAUGGAGACUUGCUCUUCUUCUGCCCUGGACAUGUGGGGAGCUCCCGCUUCCACCCCCACUGUCCAUCCUGACCUUUCCUUGCCCCACUUUCAGAGUCGAAUCAGCU | 0.498 |
| CUUGGAAGGUUUCCCUCCGGGGAAUGCCUCCCUGGAAUGUUCCAGAGACGGAACAUUCUCUAGAGACAACAGUCUGUGCUGCAGAUUGGUUGGAUCACAGAAUGUGUGUC | 0.184 |
| AGAAGGAGGGCCCAGGCACUUUCUGUUUGAACCCCUGUCAUGAUCACAGUGUCAGAGACGCGUCCUCUUUCUUGGGGAAGUUGAGGAGUGCCCUUCAGAGCCAGUAGCAG | 0.477 |
| CCCCCAGCCUGCAGCAGAAGCCUCCACAGUGAGAACUGGACCCAAAGGUAGUGGGGGCCGGUGUGGGGCAGAGUCCUGAAGAGCCACCUCUAGGAGGCAGCCCCUAGGAG | 0.774 |
| AGUGGUGUAUUCACAGCUGCUCCUUCUCUGAAUGAAAGAGUGUAGGGACACCUGCCACCAUGGCCAGACCCUGACUGAAUUUCACAUUAAGGCUUUGGAAAGGAGCAAAU | 0.382 |
| AAGUGUGGGUUUUGCCCUGAUUGUUGCAAAUACAAUUUCCACCUUCUGGAAAGGUAGGUUUGCUGUGGAGGAAAUAAUGUACUAGAUCAUUGUCACAGAAAAACCAACUA | 0.345 |
| ACAGUACAGUGCAGGAGAAGCAGCUGAGUUGGCCUGGUCUAAGGAUACCCCCUAGCAAACUUGGCCCUCUCCAUCUGUUCUGGGACUCUAUACUUCCCUAACCUGGAUCC | 0.29 |
| CCCCCGUUAAACUACAGCUGACCCUGGGCCUCAGGGCGGGAUGGUCCCAAGGUGAGCUCCGUGGACAGCAAAGCGCAUUUCUUCCAGUUGGCAUGUUGUCGAAGCCAAUG | 1.05 |
